Measured values pooled from the literature.
Protocols differ between the studies behind these lines. “And” joins repeats or separate records; there may be more than shown. ± marks the error that the study gave.

The EC50 of CCn1cc(-c2cc(Cn3ccoc3=N)cc3c2CCN([C@@H](C)c2cc(OC)ccn2)C3=O)c(C(F)(F)F)n1 is reported as 3140 nM (Rec1; cell growth, inhibitor; 120 h).
COc1ccc2c(c1)CN(C(=O)CCN1CCC(Cc3ccccc3)CC1)CC[S@@+]2[O-] has an APD90 prolongation of roughly 30% (hiPSC-derived cardiomyocytes; concentration not given).
The IC50 of OCc1ccc(-c2nn(Cc3ccncc3)c3cccnc23)o1 is reported as 8720 nM (RBE; cell viability, CellTiter-Glo).
For CCn1cc(-c2cc(Cn3ccnc3)cc3c2CCN([C@H](c2cc(OC)ccn2)C2CC2)C3=O)c(C(F)(F)F)n1, the EC50 was greater than 30000 nM (ASPC1; cell growth, inhibitor; 120 h).
O=[N+]([O-])c1cc(Br)c(O)c(C=NNc2ccc(C(F)(F)F)cc2)c1 — result for “cells in G2/M phase”: 37.1% (HCT-116; cell cycle analysis; IC50, 24 h).
For O=C(C[C@@H](C(F)F)n1ccc(F)n1)N1CCC(O)(Cn2cnc3c(cnn3-c3ccc(F)cc3)c2=O)CC1, “late apoptotic cells” read 6.4% and 9.95% and 7.07% (CHP-212 resistant; annexin V/PI flow cytometry; 1 µM, 48 h).
Nc1ccn([C@@H]2O[C@H](CO)[C@@H](O)C2(F)F)c(=O)n1 has an IC50 of greater than 10000 nM (HPAC; cell viability, MTT; mutant KRAS primary).
The IC50 of CCN(Cc1cccc(Cl)c1)c1ccc(CO)c(Cl)c1 is reported as 230 nM (RBE; cell viability, CellTiter-Glo).
C[C@H](Nc1ccc2c(c1)OCCn1cc(N3C(=O)OC[C@H]3C(F)F)nc1-2)C(N)=O: “Hill coefficient GR curve” 0.501 (IM95; cell growth, CellTiter-Glo; 120 h).
Cc1sc2c(c1C)C(c1ccc(Cl)cc1)=N[C@@H](CC(=O)NCCCCCCCCNC(=O)COc1cccc3c1C(=O)N(C1CCC(=O)NC1=O)C3=O)c1nnc(C)n1-2 (stereo partly drawn) has a cell motility of 37.6% and 37.8% and 29.3% (4T1; wound healing; concentration not given, no laser irradiation).
The cell confluence of NC(=O)NOCCCCCCCCCCCCCCCCCCCC[P+](c1ccccc1)(c1ccccc1)c1ccccc1.O=C([O-])C(F)(F)F is reported as 4.2 ± 0.47% (HCT-116; cell growth, live-cell imaging; 1 µM, control at 90% confluence).
The CD44-positive cells of CC(=O)O[C@@]12CO[C@@H]1C[C@H](O)[C@@]1(C)C(=O)[C@H](O)C3=C(C)[C@@H](OC(=O)[C@H](O)[C@@H](NC(=O)OC(C)(C)C)c4ccccc4)C[C@@](O)([C@@H](OC(=O)c4ccccc4)[C@H]21)C3(C)C is reported as 9 ± 0.4% (4T1; flow cytometry; concentration not given, 48 h).
The luminescence signal of Cn1cc(-n2cnc3c(NCc4nc5cc(Cl)c(Cl)cc5[nH]4)nc(N4CCOCC4)nc32)cn1 is reported as 420000 a.u. and 354000 a.u. and 425000 a.u. (MDA-MB-231; cell viability, CellCounting-Lite; 8.23 nM, 37 °C; higher = more viable cells).
C[C@H](CCC(=O)NCCS(=O)(=O)O)[C@H]1CC[C@H]2[C@@H]3CC[C@@H]4C[C@H](O)CC[C@]4(C)[C@H]3CC[C@]12C has a proliferation increase of 49% (human PKD renal epithelial cells; cell counting; 20 µM, 48 h; baseline: untreated).
For C=CC1=C(C)c2cc3[n-]c(cc4nc(cc5[n-]c(cc1n2)c(C)c5C=C)C(C)=C4CCC(=O)O)c(CCC(=O)O)c3C.[Zn+2], “log2 fold change” read 1.9 (SH-SY5Y; RNA-seq, item: ZYX; 5 µM, 5 h; baseline: untreated).
OCc1ccc(-c2nn(Cc3ccccc3)c3cccnc23)o1 has an IC50 of 2420 nM (RBE; cell viability, CellTiter-Glo).
O=C(/C=C/C=C/C=C/C1CCCCC1)NC1=C[C@@](O)(/C=C/C=C/C=C/C(=O)NC2=C(O)CCC2=O)[C@@H]2O[C@@H]2C1=O gave a GI50 of 19900 nM (PK-1; cell growth, CellTiter-Glo; 78 h).
COc1nc(NCc2cn(-c3ccc(C(=O)Nc4ccccc4)cc3)nn2)nc(OC)n1 — result for “cell cycle phase %G0-G1”: 57.2% (HCT-116; flow cytometry; IC50, 24 h).
The protein level of CC/C(=N\NC(=O)NCc1cccc(O)c1)c1ccc(O)c(C)c1O is reported as 1.21 ± 0.26 (SK-OV-3; Western blot, item: MST; 10 µM, 24 h, 3D culture in gellan gum, unit not given; baseline: β-actin).
With Nc1cccc2c1C(=O)N(C1CCC(=O)NC1=O)C2=O (stereo not drawn) the viability was 55% (bone marrow CD138+ myeloma cells; XTT; 1.4 µM, mean of three patients).
With NC(=O)NO the cell confluence was 89.9 ± 7.19% (HCT-116; cell growth, live-cell imaging; 10 µM, control at 90% confluence).
With NCc1ccc(-c2nn(Cc3ccccc3)c3ccccc23)o1 the IC50 was 2340 nM and 2410 nM (RBE; cell viability, CellTiter-Glo).
For Cn1cc(Nc2nccc(-c3ccc4c(c3)CN(C3COC3)CC[C@H]4NC(=O)c3cn(C(C)(C)C)nn3)n2)cn1, “number of downregulated genes” read 70 (human B cells; 100 nM, 64 h, non-stimulation-regulated genes, added: CD40L, anti-IgM, IL-4).
NC(N)=NCCC[C@H](NC(=O)COCC(c1ccccc1)c1ccccc1)C(=O)O — result for degranulation: “inactive” (LAD2; β-hexosaminidase release; 30 min, 37 °C).
Under “G2 phase cells”, Cc1cnc(NC2CCOCC2)nc1-n1cnc(C(=O)NC(CN)c2cc(F)cc(Cl)c2)c1 (stereo not drawn) is recorded as 21.4% (Rec1; flow cytometry; 1 µM, 72 h).
For COc1ccc(-n2nc(C(C)=O)s/c2=N\N=C(/C)c2ccc(NC(=O)c3ccc(C)cc3)cc2)cc1, the toxicity was 97% (MCF7; 2.5 µM).
With Nc1ncnc2c1ncn2[C@@H]1O[C@H](CO)[C@@H](O)[C@H]1O the TNF production was 3290 a.u. and 3090 a.u. and 3140 a.u. (activated human T cells; 10 µM; higher = more TNF).
Nc1cccc2c1CN(C1CCC(=O)NC1=O)C2=O (stereo not drawn) has a viability of 98% (bone marrow CD138+ myeloma cells; XTT; 0.4 µM, phenol red-free RPMI).
For NC(=O)NOCCCCCCCCCC[P+](c1ccccc1)(c1ccccc1)c1ccccc1.O=C([O-])C(F)(F)F, the cell confluence was 8.68% (HCT-116; cell growth, live-cell imaging; 15 µM, control at 90% confluence).
CCCOc1ccc(-c2ccc(C#N)cc2)cc1 — result for “number of downregulated genes”: 37 (BeWo; RNA sequencing; 50 µM, middle dose).
Under “normalized enrichment score”, O=c1[nH]nc(OCCCc2ccc(Cl)cc2)c(NCc2cccnc2)c1Br is recorded as -1.28 (HEK-293T; RNA-seq GSEA, item: HALLMARK_NOTCH_SIGNALING; concentration not given; direction not given).
C[C@]12CCCN1CC1=NNC(=O)c3cc(F)cc4[nH]c2c1c34 gave an EC50 of greater than 3000 nM (HCT-116 colorectal cancer cells; cell viability; concentration not given, added: with temozolomide).
Under “enhancers shared with DMSO”, Nc1nnc(-c2ccccc2O)cc1N1CCN(Cc2ccc(OCCOCCNc3cccc4c3C(=O)N(C3CCC(=O)NC3=O)C4=O)c(F)c2)CC1 (stereo not drawn) is recorded as 88% (NCI-H1975 (SMARCA4 wild type); ATAC-seq; 1 µM, 96 h).
With CCN(CCO)CCCC(C)Nc1ccnc2cc(Cl)ccc12 (stereo not drawn) the funny current was -17.2 pA and -6.2 pA and -13.5 pA and -16.3 pA (hiPSC-derived cardiomyocytes; perforated patch voltage clamp; 10 µM, added: hyperpolarizing step to -120 mV).
With COc1ccc(COc2ccc(Cc3cnc(N)nc3N)cc2OC)cc1 the beat amplitude was 99% (hiPSC-derived cardiomyocytes (iCell); impedance (xCELLigence Cardio); concentration not given, 2 h; baseline: control).
The sarcomere length of CC(C)NCC(O)c1ccc(O)c(O)c1 (stereo not drawn) is reported as 1.66 µm (mouse ventricular cardiomyocytes; dose not given, 0.112 s).
With Cc1ccc(CNC(=O)Cn2cc(CSc3nc4ccccc4[nH]3)nn2)cc1 the cytotoxicity was 89.4% (MDA-MB-231; MTT; 62.5 ppm).
For Cc1nn(-c2nc3ccc(Cl)c(Cl)c3[nH]2)c(O)c1C1OC(=O)c2ccccc21 (stereo not drawn), “IFNB1 mRNA level” read 0.871 and 0.809 and 0.41 (RAW-ISG; RT-qPCR; 10 µM, unit not given, added: poly(I:C); baseline: DMSO).
With Cc1ccc(NC(=O)c2ccc(CN3CCN(C)CC3)cc2)cc1Nc1nc(-c2cccnc2)cs1 the cell index was 99.8% (hiPSC-derived cardiomyocytes (iCell); impedance; concentration not given, 24 h; baseline: control).
The fold change of C=Cc1c2[n-]c(c1C)/C=c1\[n-]/c(c(C)c1C=C)=C\c1[n-]c(c(CCC(=O)O)c1C)/C=c1\[n-]c(c(C)c1CCC(=O)O)=C2.[Sn+4] is reported as 3.75 (SH-SY5Y; RNA-seq, item: TRAF1 mRNA; 5 µM, 5 h; baseline: untreated cells).
The IC50 of OCc1ccc(-c2nn(Cc3ccccn3)c3cccnc23)o1 is reported as 2210 nM (RBE; cell viability, CellTiter-Glo).
Clc1nc(NCc2ccco2)c2[nH]cnc2n1 gave a ΔPSI of 0.272 (iPSC-derived cardiomyocytes; RNA-seq, item: chr12 exon ending 53053574; unit not given; baseline: DMSO minus compound).
The cell confluence of NC(=O)NOCCCCCCCCCCCC[P+](c1ccccc1)(c1ccccc1)c1ccccc1.O=C([O-])C(F)(F)F is reported as 3.81 ± 0.66% (HCT-116; cell growth, live-cell imaging; 4 µM, control at 90% confluence).
With CC(C)n1nc(-c2cc3cc(O)ccc3[nH]2)c2c(N)ncnc21 the beat amplitude was 109% (hiPSC-derived cardiomyocytes (iCell); impedance (xCELLigence Cardio); concentration not given, 2 h; baseline: control).
The growth inhibition of COc1ccc2c(N(C)c3ccc(/C(C)=N/OCCN)cc3)c3c(Cl)coc3nc2c1 is reported as roughly 60% (PC-3, docetaxel-sensitive; trypan blue exclusion; 1 µM, 72 h).
NC(=O)NOCCCC[P+](c1ccccc1)(c1ccccc1)c1ccccc1.O=C([O-])C(F)(F)F gave a cell confluence of 47.2% (HCT-116; cell growth, live-cell imaging; 600 µM, control at 90% confluence).
The fold change of Cn1c(Nc2nc3ccc(C(F)(F)F)cc3s2)nc2cc(C(=O)NCCOCCO)ccc21 is reported as 2.12 (SH-SY5Y; RNA-seq, item: TGFB1I1 mRNA; 5 µM, 5 h; baseline: untreated cells).
The EC50 of COc1cnc2cccc(N3CCc4c(cc(Cn5ccnc5C)cc4-c4cn(C)nc4C(F)(F)F)C3=O)c2c1 is reported as 5710 nM (SU-DHL-4; cell growth, inhibitor; 120 h).
OCc1ccc(-c2nn(Cc3ccccc3Cl)c3ccccc23)o1 gave an IC50 of 1420 nM (RBE; cell viability, CellTiter-Glo).
The TNF-alpha production of Cc1cccc(-c2[nH]c(CNc3ccccc3F)nc2-c2ccc3ncnn3c2)n1 is reported as 1.11% and 1.04% and 1.18% and 1.13% and 1.12% (CD8+ T cells from myeloma patient; ELISA; human; 0.5 µM).
C[C@H]1[C@@H](O)O[C@@H]2O[C@@]3(C)CC[C@H]4[C@H](C)CC[C@@H]1[C@@]24OO3 has a viable cells of 95.6% (THP-1; annexin V/PI flow cytometry, item: annexin V-/PI-; 1.6 µM, 24 h).
With COc1cc(/C=C/C(=O)N2CCC=CC2=O)cc(OC)c1OC the mRNA level was 99.8 ± 10.8% (MDA-MB-468; qRT-PCR, item: ENO1; 30 µM, 6 h; baseline: time zero).
Cn1cc(-c2ccc(-c3cncc(Cl)c3N3CCC4(CCNC4=O)CC3)cc2)cn1: “log2 fold change” 1.98 (COLO 205; gene expression, microarray, item: DPP4 mRNA; concentration not given, 6 h; baseline: untreated cells).
The IC50 of OCc1ccc(-c2nn(-c3ccccc3)c3ccccc23)o1 is reported as 4250 nM (RBE; cell viability, CellTiter-Glo).

A few entries again:
The IC50 of OCc1ccc(-c2nn(-c3ccccc3)c3ccccc23)o1 is reported as 4250 nM (RBE; cell viability, CellTiter-Glo).
For Cc1nn(-c2nc3ccc(Cl)c(Cl)c3[nH]2)c(O)c1C1OC(=O)c2ccccc21 (stereo not drawn), “IFNB1 mRNA level” read 0.871 and 0.809 and 0.41 (RAW-ISG; RT-qPCR; 10 µM, unit not given, added: poly(I:C); baseline: DMSO).
The TNF-alpha production of Cc1cccc(-c2[nH]c(CNc3ccccc3F)nc2-c2ccc3ncnn3c2)n1 is reported as 1.11% and 1.04% and 1.18% and 1.13% and 1.12% (CD8+ T cells from myeloma patient; ELISA; human; 0.5 µM).
C[C@]12CCCN1CC1=NNC(=O)c3cc(F)cc4[nH]c2c1c34 gave an EC50 of greater than 3000 nM (HCT-116 colorectal cancer cells; cell viability; concentration not given, added: with temozolomide).
With Nc1cccc2c1C(=O)N(C1CCC(=O)NC1=O)C2=O (stereo not drawn) the viability was 55% (bone marrow CD138+ myeloma cells; XTT; 1.4 µM, mean of three patients).
With Cc1ccc(CNC(=O)Cn2cc(CSc3nc4ccccc4[nH]3)nn2)cc1 the cytotoxicity was 89.4% (MDA-MB-231; MTT; 62.5 ppm).
With NC(=O)NO the cell confluence was 89.9 ± 7.19% (HCT-116; cell growth, live-cell imaging; 10 µM, control at 90% confluence).
